Results of several laboratories.
A part holds a random share of what one study measured. Positions count from the first letter of the parent shown.

Sample 1
Target: Interferon regulatory factor 5, full length, phosphomimetic (IRF5, Homo sapiens, UniProt Q13568-2, residues 1-514, S451D/S453D/S456D/S462D)
Technique: protein-binding microarray
Form: double-stranded DNA, one strand shown
Sample: in vitro
Tested at: 940 nM top
Setting: 60-bp whole probe
Added: salmon DNA 0.4 mg/ml
Relative to: random background probes
Direction: higher = stronger binding
Quantity: fitted relative affinity
All sequences stand within: GCCTAGCAC … GTCTTGATTCGCTTGACGCTGCTG
TCATTTTTTTTTTCATCACTGTGCTAG: 1.72 z-score
TTAGATATCAGATTGGATTAGTGCTAG: -0.243 z-score
GATGAACTGGGGACTGGAGACGTGCTA: -0.0674 z-score
TCATTTATCAAATGTGGGACTGTGCTA: -0.168 z-score
GACGGTCTCCTTCTCCCGACGTGCTAG: 0.869 z-score
TCAATTTTGTTTTTCATACTGTGCTAG: 0.867 z-score
TCAACTCTCTTGTCTGGAACTGTGCTA: 0.459 z-score
GACGGTCTCGGTTTGGGGACGTGCTAG: 4.62 z-score
TCTTTTTGCTTTCTTTTATGGTGCTAG: 2.64 z-score
TTAGATTTCGGGTATCCATTAGTGCTA: 1.43 z-score
TTAGGTCTCAGTTTCGATTAGTGCTAG: 7.75 z-score
TTAGGTTTCCTTATCCTTTCGTGCTAG: 2.13 z-score
TTAGATTTCAGTTTCGAGTAGTGCTAG: 4.85 z-score
GACGGTATCGGCCTGGGGACGTGCTAG: 4.28 z-score
TTAAAAAAAAAAAACTGTAACGTGCTA: -0.0535 z-score
TCAAGACTTTCTTTCAAACTGTGCTAG: 0.931 z-score
GACGATTTCGGAACTGGAGACGTGCTA: 0.304 z-score
TTAGGTATCGGAATCGGTTAGTGCTAG: 4.43 z-score

Sample 2
Target: RNA binding protein fox-1 homolog 2, RRM domain, GST-SBP tag (RBFOX2, Homo sapiens, UniProt O43251-10, residues 100-194)
Technique: RNA Bind-n-Seq
Form: RNA
Sample: in vitro
Tested at: 365 nM
Setting: natural RNA segment, single round, ends assumed
Relative to: no-protein control
Direction: higher = stronger binding
Quantity: RBNS enrichment (R)
All sequences stand within: GGGAGUUCUACAGUCCGACGAUC … UGGAAUUCUCGGGUGCCAA
CUCCAUUUGCAGCAUGGUUCCCAUGCCAUUGGCGCACCAGACAGAAAAGGGAGAGAGAAAAGACAGGAACUGAUGAGAUAGUUUGAAAGCUGAAGGAGUUCUGAGUUUGU: 0.661
UUCUGGAAAUGAUUAUUAAUCCACAAAGAAGAACUCUGUAAGCUUUUUCUUGAAUUGUAGCCAGUGAGAAAAGCAGAUAGACUGAAGAAUAUGAAGGAUAGCUGAGCUGU: 0.591
UGGACCCUGCAGAGUGCUGGGGACGGGGUCACCGGUGUGGACAUGUGCUGGAUGUUGCUCCUUUCCCCGAUUUCAAGUUGAUGUUGACAGAAUUUCAGUAGCUUACAUAA: 1.32
CCUCCUGAGUGCUGGGAUUAAAGGCAAAAGCCACCACAGCCUGUUUUGUUUUGUUUUCGGUUUAAAAACAACAACAAACUGUGUGCAUGCAGAAUACAGACCUUGAGGUU: 2.06
ACUUGCAAAGUCUGUGCCGCCUAUUCUGACUCAUGCUGUCUAGGUGCCCAGUGUAUGAGAGCCACUUAAAACAACGCAGCCAAUUUGUAAGCAGUCUUCAUUCUCCCUCU: 0.391
GUGUACCCUAUGGUGGGAAUGUGGGGUUGCCUUUCAAAAGCCUUCAGGAUGGCAACAGAUUGGAUGUGCUAUCUCAGUGCCUGCAGGUCUCUCUGCUCGAGGCAGCAGGG: 0.609
AGAUCCUGCUGUCUGGAUCAGUGUUCUGGCUGGAGGUGCUGGAUUCUCUGAUUUUGCCUCCUCACUCUGUGUCUGGCUUUGCUCCUGGGUCUUGGCCCUGGGCCAUAUGA: 0.556
ACGGGACCUCCACAGUCCAAUGGCAUUGCCUGUGUGUGCUGUCAUGAAGAUACCACGGCUGUUCUGGUCAGCUCCUACCCUUACAUCUCUGUGUGUGUCGUCCCUCAUCC: 0.615
GUCCAUUCCAUUGCUUGUUUCUCAAAGCAGCGAGAUACCUGUCUGAGCUGCAGGAGGCAGGGGCAGCCGGGACAUGGGCACUUCAGGGCCGAGCCUCUGUGUUGCCUUCU: 0.525
UCGUAAACCCUGGCACUCCCUCCUUUAAUGGGGGCUCCCAUAAGACCCAUCUUUCCCUGCAGCUCACACCUACGCCCCAAAAGCAGUUCCCAAAGCAGUCAUGGUGCACA: 0.427
CUUGAAAAAAAAAACAUUAUUGUGGUUGUGGGAGAAAGCUCUAGAUCUGUGCCAUAAUAGAUAUGCAUUGCAAUUGUAUGCCAUGUCUCCAUUUUAAAUUUGAGUUUCCC: 1.1
AGUGGCACGGAUGAAGGGAUGCGAUGCAGUGUCUGGCACACUGAGAUGUUCCGCAAAGGAUGCUGAUCUACCAGGUUUAGCUCAACCUGGAAUAGCUGACUACCCAGGGA: 0.792

Sample 3
Target: Sal-like protein 4, full length isoform B (SALL4, Homo sapiens, UniProt Q9UJQ4-2, residues 1-616)
Technique: universal PBM
Form: double-stranded DNA, one strand shown
Sample: in vitro
Tested at: not given
Setting: 8-mer, flanks averaged, mean of replicates
Direction: higher = stronger binding
Quantity: E-score
ACCCAGAA: 0.0213
GTCAACAA: 0.063
CCATCGAC: -0.103
AACTGTTA: 0.221
GCTTCACC: -0.143
AATGGTTC: 0.0931
CTGGCATC: -0.252
ATAGGTGA: 0.169
AGTTGGCG: -0.0831
AAAGACAT: 0.132
ACACCGCA: -0.143
TATGCGAA: 0.193
GGTCACAA: -0.195
ACCGTAGC: -0.241
TCTGATCA: 0.00572
AGTCACGG: -0.0846
GACAGTCC: -0.168
ATGGCCAA: -0.00275
AGAGTCTC: -0.235
CCTACCCA: -0.0293
GACGACCC: -0.222
TACCCGTA: -0.013
AGCTTGGG: -0.137
AAGGTTGT: 0.0407
AGGCACCT: -0.244

Sample 4
Target: CCNB2, cyclin fold, Cln2 fusion (human)
Technique: yeast growth competition, sequencing
Sample: yeast
Setting: weak parent motif
Relative to: not given
Direction: higher = stronger binding
Quantity: normalised enrichment score
Starting sequence: RBL2 docking peptide (human); STTRRRLFVENDS
E10S: 0.326
R5P: -0.0504
D12W: 0.643
F8S: 0.168
T3H: 0.211
T2I: -0.072
S13F: 0.905
V9I: 0.393
L7V: -0.222
S13I: 0.698
R5K: 0.544
R4W: 0.0448
V9A: 0.658
F8M: -0.0936
S13L: 0.708
E10D: 0.848
R6E: -0.412
S13W: 0.388
N11C: 1.02
F8Y: 0.0965
S13M: 0.345
S1Y: 0.472
E10G: 0.14
V9N: 1.25
S1H: 0.272

Repeated from above (sample 1):
TCATTTATCAAATGTGGGACTGTGCTA: -0.168 z-score
TCAATTTTGTTTTTCATACTGTGCTAG: 0.867 z-score
GACGGTATCGGCCTGGGGACGTGCTAG: 4.28 z-score
TTAGATATCAGATTGGATTAGTGCTAG: -0.243 z-score
TTAAAAAAAAAAAACTGTAACGTGCTA: -0.0535 z-score
GACGGTCTCCTTCTCCCGACGTGCTAG: 0.869 z-score
TCATTTTTTTTTTCATCACTGTGCTAG: 1.72 z-score
